Experimental data collected from several papers.
Every numbered part comes from another study and shows a few of its results, in no order.

Series 1 — method: RNA Bind-n-Seq; molecule type: RNA; medium: in vitro; concentration: 365 nM; relative to: no-protein control; reading: higher = stronger binding
Target: RNA binding protein fox-1 homolog 2, RRM domain, GST-SBP tag (RBFOX2, Homo sapiens, UniProt O43251-10, residues 100-194)
Setting: natural RNA segment, single round, ends assumed
Target sequence (chain): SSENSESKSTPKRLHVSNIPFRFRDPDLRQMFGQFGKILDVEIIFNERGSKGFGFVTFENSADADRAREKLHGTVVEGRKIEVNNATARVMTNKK
Sequence	RBNS enrichment (R)
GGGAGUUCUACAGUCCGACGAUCACCACAUGGUGGUUCCCAACCAUCUGUAAUGGGAUCUGAUGCCCUCUUCUGGUGUGUCUGAAGACAACAGUAGUGUACUCACGUAUAUGAAAUAAAUAAAUCUUAAAAAAUGGAAUUCUCGGGUGCCAA	0.44
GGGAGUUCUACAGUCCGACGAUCCUCUCUCUAGGCAGAGCGUUCCUGGCCAGAGCUCUACCUCUUUGCCUCCUGCUGACCCCUGACAGCGUCCCGUGGCAUUUCUUUCAUGUCUGCAUAUUGCAUAGCCUUGUUGGAAUUCUCGGGUGCCAA	0.459
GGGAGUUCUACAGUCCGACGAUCCUUAAGUUGACCAGUUCUCAUAGCUCUAUCACUAGAAUGGUUUGCAGAUACCCCAAACAUACUAUGAUAAAAUCAAAUUGUGCUACUUUUGACCCAUGUAAUUUACCUAAUGGAAUUCUCGGGUGCCAA	0.488
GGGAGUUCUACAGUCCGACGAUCAUCAUCUCUAUUGGCCUGGGGUGCCUGUGCUAUAAAUGAGUUUCUUCACAUGAAAAACACAGCCAGCCCAAGAUGACUUAUCUGGGUUUAGGAUUCAAUAGUAUUCACUAUGGAAUUCUCGGGUGCCAA	0.224
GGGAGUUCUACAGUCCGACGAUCCCUAAGGAACAGCAUUUCUCUGCUCCUCAGUCAACCCCCGUAGCCUAGAGCAGUGUCACAAGCUUCAGUAAGGCCAGUCAGCUGGAAGUCAGUCUACCGUAUAGUAACACUGGAAUUCUCGGGUGCCAA	0.269
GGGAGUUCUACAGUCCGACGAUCAAGAGUCUGAGGAUUUCUUCUUACUGGCGUUCUUAAAGGUCUCUAAAAUUAAAGAACAAGAUGUGGUUUUUUGUUUAAGACGUUUUUAGUUUAUUUGUUGUUAAGUUAAAUGGAAUUCUCGGGUGCCAA	0.48
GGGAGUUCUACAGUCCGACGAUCCCAAUCAGUCAAAGGCAGCAAGCAGACAGACGCCAGGUAUUUGAAAGGUCUUCUACACAGAGGAUAUACAACUGUAUGUCUGGGUCAGACAGUCUGUCUAUGUGUGCAUGUGGAAUUCUCGGGUGCCAA	0.944
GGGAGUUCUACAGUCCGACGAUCUCUAGCAGGCUGGAGUGAAGGGGGGAGAGGGCUGUGGCAGAGGUGAGGGUUUCGCUAGAACCAUUUUGUGAUUGCCACCAGCCAAGAUGGACUUUCUUCCCACCCCUUGCUGGAAUUCUCGGGUGCCAA	0.948
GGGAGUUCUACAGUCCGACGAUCACUAAUGCGCCGGGAAGGCUGGGUGCGUACAAGCAAAGGGCUCCCCAUCAGUCCCGUCCGUCUGUCGCCUUCCCGCAAGCGUCAUCAUCGAAGCCACUGCUCCUGGGAGCUGGAAUUCUCGGGUGCCAA	0.315

Series 2 — method: protein binding microarray; molecule type: double-stranded DNA, one strand shown; medium: in vitro; concentration: not given; relative to: not given; reading: higher = stronger binding
Target: Histone acetyltransferase KAT6A, winged helix 2, GST fusion (KAT6A, Homo sapiens, UniProt Q92794, residues 85-181)
Setting: 8-mer, flanks averaged, mean of 2 arrays, mostly near background
Target sequence (chain): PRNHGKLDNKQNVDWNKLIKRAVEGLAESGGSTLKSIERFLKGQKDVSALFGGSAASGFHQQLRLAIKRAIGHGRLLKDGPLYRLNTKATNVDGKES
Sequence	E-score
ACCGTCGG	0.0753
AACCCATA	0.0501
GAGACGGC	0.177
ACGTGCGC	0.0613
ATAGGGAA	0.0302
AAGAAAGA	-0.0169
ATATTCGG	0.0302
AGCGGATC	0.129
CACGCCCG	0.123
ATCATTTC	0.107
CGACTACC	-0.177
CACAGGGC	0.098
AGGATCCT	-0.149
ATAGCCAG	-0.125
AAGCACCG	0.0487
AACGTCTT	-0.178
GTTTTAAA	0.114
GCCCGGCA	0.218
ATATCCGC	0.182
ATTACGGG	-0.0809
AGTTGAGC	-0.0912
ATGCGCTA	-0.115
AAAACAGG	-0.107
GACACGAC	-0.0573
ACGGTTAA	-0.0256

Series 3 — method: RNA Bind-n-Seq; molecule type: RNA; medium: in vitro; concentration: not given; relative to: input RNA pool; reading: higher = stronger binding
Target: RING finger protein unkempt homolog, zinc fingers 1-6, GST-SBP tag (UNK, Homo sapiens, UniProt Q9C0B0, residues 30-357)
UniProt Q9C0B0, sequence (30-357, looked up): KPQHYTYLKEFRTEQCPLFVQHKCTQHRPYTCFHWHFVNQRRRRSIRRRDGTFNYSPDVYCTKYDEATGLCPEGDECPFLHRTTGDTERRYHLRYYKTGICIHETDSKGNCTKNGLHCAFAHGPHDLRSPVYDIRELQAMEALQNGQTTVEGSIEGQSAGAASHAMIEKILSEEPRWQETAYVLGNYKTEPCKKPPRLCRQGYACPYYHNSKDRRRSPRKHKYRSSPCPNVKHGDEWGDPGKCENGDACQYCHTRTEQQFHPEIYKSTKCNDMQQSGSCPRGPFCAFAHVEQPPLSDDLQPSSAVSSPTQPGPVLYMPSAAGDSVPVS
Setting: RNA with constant flanks, human and mouse sites, ends assumed
Sequence	bound/input enrichment [ratio]
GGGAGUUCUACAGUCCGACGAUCGACCCUUACUUCCACGAUCGUGUUGCUUCCUUCUAUGAAGGUCAGGUUGCAAUAUGGGAUCUUAGAAAAUUUGAGAAGCCAGUUUUGACUUUGACUGAACAACCAAAGCCCUUGACAAAGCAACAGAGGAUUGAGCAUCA	0.292
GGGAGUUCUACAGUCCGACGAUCGAGAAGCGGGAGAAAAUGAAGCGGACACUCUUAAAGGAUUGGAAGACCCGUUUGAGCUACUUCUUGCAGAAUUCCUCUGCUCCUGGGAAGCCCAAAACUGGCAAGAAAAGCAAACAGCAACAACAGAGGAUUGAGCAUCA	0.244
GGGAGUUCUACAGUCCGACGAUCCAGUGGGACGGGGAGCAAAGCCCCAGAGGGGAGCGAAACAGGUGGAAGUACGAGGAAUUUUUAGAUCAUCCAGGCCAUAUCCACAGUAGUCCUUGUCAUGAAAGGCCCAACAAUGUCUCUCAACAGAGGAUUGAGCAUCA	0.292
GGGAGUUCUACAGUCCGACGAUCGCGACCGAGCCAGUCAAAGAUGCAGAUCCUCAUUUUCAUCAUUUUCUGUUGAGCCAAACAGAGAAGCCAGCUGUCUGUUACCAGGCAAUCACAAAGAAGUUGAAAAUAUGUGAAGAGGAACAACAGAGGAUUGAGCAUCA	0.587
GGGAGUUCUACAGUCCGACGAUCUACUGUACCUCCACCCUGCGCCACUUCUUGCCUCUACUGGAAAGAAGUCAAGGAGAAGAUAUAGAAGACGACCACAGGGCAGAGCUGUUGAAGCAGCUGGGGGACUACAGGUUCUCUGGACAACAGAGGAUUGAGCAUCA	0.122
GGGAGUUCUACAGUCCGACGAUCAGAGAUAAGACAUCCAGGAACAUGCGAGGCUCCCGGAUGAAUGGGUUGCCUAGCCCCACUCACAGCGCCCACUGUAGCUUCUACCGAACCAGAACCUUGCAGGCACUGAGUAAUGAGAAGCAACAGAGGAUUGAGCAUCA	0.138
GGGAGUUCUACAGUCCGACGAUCUGAGUUAUUUAAUCAAAACAAAUCUUAAAAUAUAGUUGCUCUUUACGUUUAAUCUUCAUUUUUUUCAGAUCUUAAGUUUCAGAUCUUACGAAUGUUGUACUUAUGUCUAAUUUGGGAAUGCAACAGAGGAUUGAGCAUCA	2.32
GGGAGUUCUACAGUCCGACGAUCCUGGAGAGAAUAAAGAGCAGUCGCAAAUGAAGCUGCCCCACUCCCCCGGCACCCUGCAGCUUUAGUUUACUAAACUAGAAGUCCUCAUAGUUUAAAAUGGCCUCAGCAGGCCUAGUGUAUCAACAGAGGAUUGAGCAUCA	23

Series 4 — method: RNA Bind-n-Seq; molecule type: RNA; medium: in vitro; concentration: 1 µM; setting: whole 134-nt RNA, ends assumed; added: 150 mM KCl; relative to: input library; reading: higher = stronger binding
Target: Ras GTPase-activating protein-binding protein 1, RRM domain (G3BP1, Homo sapiens, UniProt Q13283)
UniProt Q13283, sequence (whole entry, looked up): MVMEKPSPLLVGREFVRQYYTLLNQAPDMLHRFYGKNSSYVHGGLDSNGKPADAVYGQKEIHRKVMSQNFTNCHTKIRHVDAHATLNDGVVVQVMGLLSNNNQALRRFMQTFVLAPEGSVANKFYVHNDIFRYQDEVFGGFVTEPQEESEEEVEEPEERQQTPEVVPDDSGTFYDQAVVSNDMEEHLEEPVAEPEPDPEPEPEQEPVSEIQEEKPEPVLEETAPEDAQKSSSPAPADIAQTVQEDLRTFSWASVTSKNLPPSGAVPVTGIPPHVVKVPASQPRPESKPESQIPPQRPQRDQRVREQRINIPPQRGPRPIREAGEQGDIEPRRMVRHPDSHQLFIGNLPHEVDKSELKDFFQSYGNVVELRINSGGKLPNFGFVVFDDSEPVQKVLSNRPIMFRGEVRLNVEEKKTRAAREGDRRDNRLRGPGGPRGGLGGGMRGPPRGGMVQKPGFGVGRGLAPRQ
Sequence	log2 enrichment
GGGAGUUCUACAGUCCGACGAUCUUUUAGAAAGAGAAGGGGAAGAAAAUGAAGCCUUACAUAAGAUGAUUGCAAACGAGCAAAAGACUUCUCUCCCAAAUUUGUUCCAGGAUAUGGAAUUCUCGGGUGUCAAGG	-0.194
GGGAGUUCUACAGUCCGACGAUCUUGCUAACUUCAAGAUAGAGCCUCCUGGACUUUUCCGUGGCCGCGGCAACCACCCCAAGAUGGGCAUGCUGAAGAGACGAAUCAUGCCCGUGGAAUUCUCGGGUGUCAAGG	-0.0393
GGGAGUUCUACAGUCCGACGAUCAAGUCCUGUGCUACACAUCGUAUGUACCGAAUCGGGGUUUUGGGGUUUUGGUUUUGGAAAGUAUUAUGUUACGCCGUUCGGAUCUGCACUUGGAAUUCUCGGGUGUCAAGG	-0.367
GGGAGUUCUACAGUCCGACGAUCGUUGUAGACACUCCUGGGAUCCUGGACCACCCUCUGGAGGAUAGGAACACCAUCGAGAUGCAGGCCAUCACUGCCCUGGCCCACCUCCGUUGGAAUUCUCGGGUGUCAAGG	-0.288
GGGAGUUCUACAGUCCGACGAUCAAGUCCUGUGCUACACAUCGUAUGUACCGAAUCGGGGCCCGGGGCCCGGGCCCGGGAAAGUAUUAUGUUACGCCGUUCGGAUCUGCACUUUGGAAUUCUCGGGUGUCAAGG	-0.86
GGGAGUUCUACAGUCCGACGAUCUCCUGUGCUACACAUCGUAUGUACCGAAUCGGGGUUUGGGGAAAGGGGUUUUUUUGGGGAAAGUAUUAUGUUACGCCGUUCGGAUCUGCAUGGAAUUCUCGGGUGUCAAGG	1.1
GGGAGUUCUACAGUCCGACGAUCAAGUCCUGUGCUACACAUCGUAUGUACCGAAUCAAACCCCCAAACCCAAAUUUAAAAAAGUAUUAUGUUACGCCGUUCGGAUCUGCACUUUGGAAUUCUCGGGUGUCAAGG	-0.0269
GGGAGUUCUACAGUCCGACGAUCCAAGUCCUGUGCUACACAUCGUAUGUACCGAAUCGGUUUGGUUUUUUUGGUUUGGAAAGUAUUAUGUUACGCCGUUCGGAUCUGCACUUCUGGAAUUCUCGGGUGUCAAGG	-0.336
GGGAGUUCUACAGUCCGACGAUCAGUCCUGUGCUACACAUCGUAUGUACCGAAUCGGGAAAAAGGAAAAAGGAAAAAGGGAAAGUAUUAUGUUACGCCGUUCGGAUCUGCACUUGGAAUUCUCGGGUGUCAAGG	-0.0997
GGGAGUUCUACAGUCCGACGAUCUCAAGUCCUGUGCUACACAUCGUAUGUACCGAAUCGGAAAGGGGAAAGGAAAGGGAAAGUAUUAUGUUACGCCGUUCGGAUCUGCACUUCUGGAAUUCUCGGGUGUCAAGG	-0.275
